Assay results from different studies.
Parts stem from different laboratories: compare values within a part only.
Chain of UniProt Q9UM73 (whole entry, unmodified, looked up): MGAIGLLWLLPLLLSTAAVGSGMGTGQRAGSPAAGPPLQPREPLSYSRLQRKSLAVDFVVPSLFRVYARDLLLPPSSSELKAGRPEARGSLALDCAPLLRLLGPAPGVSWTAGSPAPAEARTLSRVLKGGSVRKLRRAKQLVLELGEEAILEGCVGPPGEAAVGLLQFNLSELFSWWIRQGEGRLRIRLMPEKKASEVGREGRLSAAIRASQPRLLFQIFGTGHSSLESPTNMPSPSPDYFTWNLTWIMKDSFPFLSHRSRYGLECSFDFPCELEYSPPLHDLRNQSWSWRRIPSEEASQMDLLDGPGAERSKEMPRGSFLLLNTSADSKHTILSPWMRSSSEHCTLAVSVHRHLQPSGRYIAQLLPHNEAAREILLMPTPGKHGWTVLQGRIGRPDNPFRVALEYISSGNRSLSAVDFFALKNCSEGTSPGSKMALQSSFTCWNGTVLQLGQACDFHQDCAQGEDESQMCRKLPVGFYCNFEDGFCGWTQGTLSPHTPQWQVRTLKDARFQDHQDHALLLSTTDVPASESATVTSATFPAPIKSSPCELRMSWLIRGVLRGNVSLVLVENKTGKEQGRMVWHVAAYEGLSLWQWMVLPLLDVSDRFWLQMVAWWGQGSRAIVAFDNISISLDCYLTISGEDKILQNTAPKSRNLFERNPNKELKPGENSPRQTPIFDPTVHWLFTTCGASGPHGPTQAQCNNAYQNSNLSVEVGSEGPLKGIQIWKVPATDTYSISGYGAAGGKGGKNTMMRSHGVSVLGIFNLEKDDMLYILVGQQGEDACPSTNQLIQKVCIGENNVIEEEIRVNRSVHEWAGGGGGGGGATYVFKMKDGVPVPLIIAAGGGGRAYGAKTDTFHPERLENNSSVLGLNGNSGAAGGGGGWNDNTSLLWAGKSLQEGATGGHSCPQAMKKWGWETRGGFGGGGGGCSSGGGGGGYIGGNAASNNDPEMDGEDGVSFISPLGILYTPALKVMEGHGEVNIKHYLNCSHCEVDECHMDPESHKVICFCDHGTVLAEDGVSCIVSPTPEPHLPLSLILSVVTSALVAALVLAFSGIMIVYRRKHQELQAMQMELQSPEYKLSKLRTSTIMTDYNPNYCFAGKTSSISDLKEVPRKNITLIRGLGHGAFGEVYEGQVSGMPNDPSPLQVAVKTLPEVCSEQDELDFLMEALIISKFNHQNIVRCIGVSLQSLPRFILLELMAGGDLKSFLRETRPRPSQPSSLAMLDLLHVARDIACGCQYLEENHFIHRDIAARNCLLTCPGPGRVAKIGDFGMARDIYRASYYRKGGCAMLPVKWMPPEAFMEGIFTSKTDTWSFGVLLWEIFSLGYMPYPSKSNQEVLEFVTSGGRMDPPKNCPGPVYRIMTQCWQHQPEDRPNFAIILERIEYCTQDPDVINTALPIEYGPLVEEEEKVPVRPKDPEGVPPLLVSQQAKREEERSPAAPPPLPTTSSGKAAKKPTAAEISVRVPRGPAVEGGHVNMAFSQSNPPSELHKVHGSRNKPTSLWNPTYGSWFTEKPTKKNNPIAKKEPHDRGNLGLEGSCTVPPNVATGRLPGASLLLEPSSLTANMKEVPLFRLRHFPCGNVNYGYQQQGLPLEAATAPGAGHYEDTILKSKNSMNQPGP
Chain of UniProt Q9UQB9 (whole entry, looked up): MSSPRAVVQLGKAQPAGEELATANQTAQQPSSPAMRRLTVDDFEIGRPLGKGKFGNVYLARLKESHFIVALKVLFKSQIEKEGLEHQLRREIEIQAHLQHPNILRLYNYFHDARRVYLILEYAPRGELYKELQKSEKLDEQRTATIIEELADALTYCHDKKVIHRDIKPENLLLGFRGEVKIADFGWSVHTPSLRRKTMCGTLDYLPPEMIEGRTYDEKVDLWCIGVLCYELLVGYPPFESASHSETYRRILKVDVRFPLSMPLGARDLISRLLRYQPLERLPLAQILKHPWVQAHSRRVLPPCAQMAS
Chain of UniProt Q8N568 (whole entry, looked up): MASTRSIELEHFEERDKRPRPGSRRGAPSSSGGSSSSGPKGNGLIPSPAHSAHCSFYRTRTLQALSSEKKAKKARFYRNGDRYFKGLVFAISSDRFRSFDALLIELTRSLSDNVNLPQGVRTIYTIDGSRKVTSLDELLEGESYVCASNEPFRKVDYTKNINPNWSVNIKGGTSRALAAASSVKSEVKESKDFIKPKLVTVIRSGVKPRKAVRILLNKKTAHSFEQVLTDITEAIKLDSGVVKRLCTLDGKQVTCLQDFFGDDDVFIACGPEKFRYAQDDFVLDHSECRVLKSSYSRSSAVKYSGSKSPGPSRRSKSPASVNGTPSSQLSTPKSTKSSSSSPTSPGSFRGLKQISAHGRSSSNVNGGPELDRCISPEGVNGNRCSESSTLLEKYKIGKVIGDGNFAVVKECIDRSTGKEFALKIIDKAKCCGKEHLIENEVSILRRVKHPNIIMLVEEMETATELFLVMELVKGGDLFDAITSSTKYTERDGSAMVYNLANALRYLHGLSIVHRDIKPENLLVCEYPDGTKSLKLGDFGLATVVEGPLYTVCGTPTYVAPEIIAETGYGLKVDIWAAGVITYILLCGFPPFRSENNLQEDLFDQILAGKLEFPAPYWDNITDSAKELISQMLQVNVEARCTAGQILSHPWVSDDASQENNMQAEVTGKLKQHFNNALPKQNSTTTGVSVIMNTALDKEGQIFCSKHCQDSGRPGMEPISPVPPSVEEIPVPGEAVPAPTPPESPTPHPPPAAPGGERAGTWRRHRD
Chain of UniProt P0C1S8 (whole entry, looked up): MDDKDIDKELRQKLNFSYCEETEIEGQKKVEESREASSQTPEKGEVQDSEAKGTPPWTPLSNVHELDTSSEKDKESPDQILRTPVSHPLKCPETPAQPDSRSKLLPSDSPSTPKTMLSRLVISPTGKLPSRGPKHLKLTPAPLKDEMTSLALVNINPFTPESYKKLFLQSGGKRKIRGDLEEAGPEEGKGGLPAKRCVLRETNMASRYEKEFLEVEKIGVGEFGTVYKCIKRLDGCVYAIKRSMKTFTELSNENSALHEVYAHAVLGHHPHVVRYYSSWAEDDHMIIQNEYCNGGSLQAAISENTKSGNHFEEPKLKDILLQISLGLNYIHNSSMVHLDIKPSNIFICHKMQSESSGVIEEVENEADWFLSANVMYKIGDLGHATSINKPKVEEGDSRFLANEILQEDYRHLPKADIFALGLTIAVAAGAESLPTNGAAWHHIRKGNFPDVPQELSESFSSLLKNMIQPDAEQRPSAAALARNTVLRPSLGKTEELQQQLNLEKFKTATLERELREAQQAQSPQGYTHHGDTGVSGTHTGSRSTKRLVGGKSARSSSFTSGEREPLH
Chain of UniProt P07949 (whole entry, unmodified, looked up): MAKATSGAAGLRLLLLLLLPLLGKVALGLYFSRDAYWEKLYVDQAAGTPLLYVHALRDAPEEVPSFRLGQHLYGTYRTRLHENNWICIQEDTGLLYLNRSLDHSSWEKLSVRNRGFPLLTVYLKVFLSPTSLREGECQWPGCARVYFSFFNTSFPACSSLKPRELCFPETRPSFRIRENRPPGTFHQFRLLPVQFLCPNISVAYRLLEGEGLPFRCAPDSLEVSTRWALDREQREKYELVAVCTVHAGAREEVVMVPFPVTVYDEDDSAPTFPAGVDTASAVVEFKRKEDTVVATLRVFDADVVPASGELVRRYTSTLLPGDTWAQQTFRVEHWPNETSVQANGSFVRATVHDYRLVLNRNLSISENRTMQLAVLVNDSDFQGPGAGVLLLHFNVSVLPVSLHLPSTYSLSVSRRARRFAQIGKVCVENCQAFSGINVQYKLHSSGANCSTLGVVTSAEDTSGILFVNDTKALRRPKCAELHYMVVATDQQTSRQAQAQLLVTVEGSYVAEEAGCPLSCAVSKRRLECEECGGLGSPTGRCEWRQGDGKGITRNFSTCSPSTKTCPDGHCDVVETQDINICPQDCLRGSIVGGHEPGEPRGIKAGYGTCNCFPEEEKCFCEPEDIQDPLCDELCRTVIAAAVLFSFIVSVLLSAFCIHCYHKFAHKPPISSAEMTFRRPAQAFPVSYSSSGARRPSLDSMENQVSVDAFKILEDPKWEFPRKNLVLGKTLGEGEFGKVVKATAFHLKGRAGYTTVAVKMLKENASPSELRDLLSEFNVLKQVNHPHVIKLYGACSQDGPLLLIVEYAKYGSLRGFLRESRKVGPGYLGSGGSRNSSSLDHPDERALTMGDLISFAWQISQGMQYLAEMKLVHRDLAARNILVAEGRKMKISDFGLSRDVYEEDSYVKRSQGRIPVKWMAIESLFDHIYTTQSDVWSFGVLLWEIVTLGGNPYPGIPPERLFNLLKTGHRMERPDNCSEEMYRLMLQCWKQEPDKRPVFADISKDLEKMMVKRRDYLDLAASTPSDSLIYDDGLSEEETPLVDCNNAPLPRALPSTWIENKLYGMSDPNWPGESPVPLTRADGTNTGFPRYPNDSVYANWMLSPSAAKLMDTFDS
Chain of UniProt P49760 (whole entry, looked up): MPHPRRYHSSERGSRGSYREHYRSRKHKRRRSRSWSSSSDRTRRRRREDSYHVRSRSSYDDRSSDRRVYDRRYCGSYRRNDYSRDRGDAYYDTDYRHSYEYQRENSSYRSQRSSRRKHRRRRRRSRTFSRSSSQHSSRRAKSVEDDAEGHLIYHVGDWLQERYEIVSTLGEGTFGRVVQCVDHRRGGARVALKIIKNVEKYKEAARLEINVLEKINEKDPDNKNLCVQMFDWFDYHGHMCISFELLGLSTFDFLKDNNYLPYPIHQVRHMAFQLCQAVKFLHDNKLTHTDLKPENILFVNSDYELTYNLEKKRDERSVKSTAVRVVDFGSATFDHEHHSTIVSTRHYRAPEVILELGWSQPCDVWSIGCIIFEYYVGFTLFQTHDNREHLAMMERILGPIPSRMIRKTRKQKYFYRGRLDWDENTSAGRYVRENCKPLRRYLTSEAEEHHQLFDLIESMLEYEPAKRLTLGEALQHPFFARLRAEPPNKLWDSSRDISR

Sample 1
SMILES: O=C(c1cc2cc(O)ccc2[nH]1)c1cc2cc(O)ccc2[nH]1
Read-out: enzyme activity
Mode: inhibitor
Tested at: 0.5 µM
Relative to: control
Endpoint: remaining activity
GRK6 (Homo sapiens, UniProt P43250): 102%
Aurora kinase C (AURKC, Homo sapiens, UniProt Q9UQB9): 83.2%
GSK3A (Homo sapiens, UniProt P49840): 75.7%
RPS6KB1 (Homo sapiens, UniProt P23443): 85%
EPHA7 (Homo sapiens, UniProt Q15375): 101%
PRKCE (Homo sapiens, UniProt Q02156): 119%
NUAK1 (Homo sapiens, UniProt O60285): 69.2%
FGFR4 (Homo sapiens, UniProt P22455): 92.8%
BMX (Homo sapiens, UniProt P51813): 80.6%
CSF1R (Homo sapiens, UniProt P07333): 97.7%

Sample 2
Host: human
Medium: microsomes or S9
Tested at: 2 µM
Time: 0.5 h
Endpoint: remaining compound
O=c1cccc2n1CC1CC(C2)N(c2nc(N3CCCCC3)nc(N3CCCCC3)n2)C1 (centres unmarked): 3.89%
Cc1cccc(OCCn2cnc3c(cnn3-c3cccc(C(F)(F)F)c3)c2=O)c1: > 99%
CC(=O)c1c(NC2CCCc3ccccc32)[nH]c2c(-c3ccccc3)cccc2c1=O (centres unmarked): 35.9%
COc1ccc(Cc2nc(-c3ccc(=O)[nH]c3)no2)cc1Cl: 72.4%
O=c1c2ccccc2nc(-c2ccco2)n1-c1nc2ccccc2s1: > 99%
OCCN1CCN(Cc2nc(O)c3ccccc3n2)CC1: > 100%
COc1cc(/C=N/n2cnnc2)cc(Br)c1OCCOc1ccc(C(C)(C)C)cc1: 86.5%
CCCn1ncc(N2CCC(C(=O)N3CCN(CCOc4ccc(Cl)cc4)CC3)CC2)cc1=O: 72.9%
Cc1ccc(-n2nc(C)c3c2CC(c2ccco2)CC3=O)cc1 (centres unmarked): 16.7%
Cc1ccc(OC(C)C)c(CN(CCO)CCO)c1: 78.1%
CN(Cc1cnn(-c2ccccc2)c1)c1ccc(C#N)cn1: 0.2%
Cc1ccc(CN2CCC=C(CCC(=O)O)C2=O)cc1: 92.6%
COC(=O)C1(C(=O)OC)C(CC(=O)c2ccc(Br)cc2)c2cc(N(C)C)ccc2C(c2ccccc2)N1S(=O)(=O)c1ccc(C)cc1 (centres unmarked): 42.2%

Sample 3
Structure (SMILES): O=C(Nc1cccnn1)N1CCC(=Cc2cccc(Oc3ccc(C(F)(F)F)cn3)c2)CC1
Read-out: cell-free assay
Method: competition with immobilised ligand
Tested at: 1 µM
Endpoint: remaining binding
RET (Homo sapiens, UniProt P07949, M918T): 80%
DCLK2 (Homo sapiens, UniProt Q8N568): 81%
ALK (Homo sapiens, UniProt Q9UM73, C1156Y): 100%
CLK2 (Homo sapiens, UniProt P49760): 66%
EGFR (Homo sapiens, UniProt P00533, del747-752/P753S): 68%
FER (Homo sapiens, UniProt P16591): 74%
Tyrosine-protein kinase ABL1, phosphorylated (ABL1, Homo sapiens, UniProt P00519): 93%
IKBKE (Homo sapiens, UniProt Q14164): 100%
WEE2 (Homo sapiens, UniProt P0C1S8): 77%
VRK2 (Homo sapiens, UniProt Q86Y07): 100%
IRAK3 (Homo sapiens, UniProt Q9Y616): 86%
BLK (Homo sapiens, UniProt P51451): 100%
KIT (Homo sapiens, UniProt P10721, D816H): 100%
KDR (Homo sapiens, UniProt P35968): 88%
BMPR1A (Homo sapiens, UniProt P36894): 100%
RIPK4 (Homo sapiens, UniProt P57078): 100%
WNK4 (Homo sapiens, UniProt Q96J92): 96%

Sample 4
Cell line: HaCaT
Tested at: 100 µM
Time: 60 h
Endpoint: viability
CCc1c(C)[nH]c2c1C(=O)C(CN1CCOCC1)CC2 (centres unmarked): 140%
O=C(CO)[C@@H](O)[C@H](O)[C@H](O)CO: 143%
CC(C)c1ccc2oc3nc(N)c(C(=O)O)cc3c(=O)c2c1: 126%
O=c1c(O[C@@H]2O[C@H](CO)[C@H](O)[C@H](O)[C@H]2O)c(-c2ccc(O)c(O)c2)oc2cc(O)cc(O)c12: 162%
O=C(O)[C@@H]1CSCN1: 131%
COc1ccccc1OCC(O)CN1CCN(CC(=O)Nc2c(C)cccc2C)CC1 (centres unmarked): 118%
O=C(O)c1cccc(-c2noc(-c3ccccc3F)n2)c1: 114%
